Measured values pooled from the literature.
Compare with care: the assays were run in different laboratories. ± gives the spread as reported.

Structure (SMILES)	assay	system	setting	tissue uptake
O=C([O-])c1cccc(CN(CCN(Cc2cn(Cc3ccccc3)nn2)Cc2cccc(C(=O)[O-])n2)Cc2cn(Cc3ccccc3)nn2)n1.[64Cu+2]	–	healthy athymic nude mice, kidney	intravenous, 24 h	4.8 %ID/g
NC12CNCCNCC(NCc3ccc(CNC(=O)CCCC(=O)NCc4ccc(-c5nncnn5)cc4)cc3)(CNCCNC1)CNCCNC2.[64Cu+2]	–	athymic nude mice, SW1222 xenograft, large intestine, with contents	24 h p.i., huA33-TCO pretargeting, 24 h interval	0.26 ± 0.06 %ID/g
O=C([O-])CN1CCN(CC(=O)[O-])CCN(CC(=O)NCCc2ccc3c(c2)C2C=CCC2C(c2cc4c(cc2Br)OCO4)N3)CCN(CC(=O)[O-])CC1.[111In+3] (stereo not drawn)	SPECT/CT imaging	mice with Hec50 tumour xenograft, intestine	4 h	83.9 % ID
CCCC[C@H](NC(=O)CNC(=O)CNC(=O)CN1CCN(CC(=O)O)CCN(CC(=O)O)CC1)C(=O)N[C@H]1CC(=O)NCCCC[C@@H](C(N)=O)NC(=O)[C@H](Cc2c[nH]c3ccccc23)NC(=O)[C@H](CCCNC(=N)N)NC(=O)[C@@H](Cc2ccccc2)NC(=O)[C@H](Cc2c[nH]cn2)NC1=O [gallium-67 labelled]	–	female C57 mice, B16/F1 melanoma, liver	intravenous, 0.037 MBq, 4 h	0.54 ± 0.05 %ID/g
CC(C)[C@H](NC(=O)[C@@H]1CCCN1C(=O)[C@H](CCCNC(=N)N)NC(=O)[C@H](CS)NC(=O)[C@H](Cc1c[nH]c2ccccc12)NC(=O)[C@H](CCCNC(=N)N)NC(=O)[C@@H](Cc1ccccc1)NC(=O)[C@H](Cc1c[nH]cn1)NC(=O)[C@H](CCC(=O)O)NC(=O)[C@H](CS)NC(=O)[C@H](CS)NC(=O)CNC(=O)[C@@H]1CC(=O)N[C@@H](CCCNC(=N)N)C(=O)NCC(=O)N[C@@H](CC(=O)O)C(=O)N[C@H](Cc2ccc(O)cc2)C(=O)N1)C(N)=O [technetium-99m labelled]	–	C57 mice B16/F1 melanoma female, brain	iv, 2 h, with: NDP-MSH 10 µg co-injected	0.09 ± 0.08 %ID/g
CCCC[C@@H]1NC(=O)[C@@H](NC(=O)[C@H](CCC(=O)O)NC(=O)CNC(=O)CN2CCN(CC(=O)O)CCN(CC(=O)O)CCN(CC(=O)O)CC2)CCCCNC(=O)C[C@@H](C(N)=O)NC(=O)[C@H](C(C)C)NC(=O)[C@@H]2CCCN2C(=O)[C@H](CCCNC(=N)N)NC(=O)CNC(=O)[C@H](Cc2c[nH]c3ccccc23)NC(=O)[C@H](CCCNC(=N)N)NC(=O)[C@@H](Cc2ccccc2)NC(=O)[C@H](Cc2c[nH]cn2)NC(=O)[C@H](CCC(=O)O)NC1=O [gallium-67 labelled]	–	C57 mice, B16/F1 flank melanoma, bone	intravenous, 0.037 MBq/mouse, 4 h	0.1 ± 0.02 %ID/g
N=C(N)NCCC[C@@H]1NC(=O)[C@H](CCCCNC(=O)CON=C[C@H](F)[C@@H](O)[C@H](O)[C@H](O)CO)NC(=O)[C@@H](Cc2ccc(O)cc2)NC(=O)[C@H](CC(=O)O)NC(=O)CNC1=O [fluorine-18 labelled]	–	nude mice U-87 MG tumour, spleen	intravenous, 2 h	0.17 ± 0.2 %ID/g
CCCC[C@H](NC(=O)CNC(=O)CNC(=O)CN1CCN(CC(=O)O)CCN(CC(=O)O)CCN(CC(=O)O)CC1)C(=O)N[C@H]1CC(=O)NCCCC[C@@H](C(N)=O)NC(=O)[C@H](Cc2c[nH]c3ccccc23)NC(=O)[C@H](CCCNC(=N)N)NC(=O)[C@@H](Cc2ccccc2)NC(=O)[C@H](Cc2c[nH]cn2)NC1=O [gallium-67 labelled]	–	female C57 mice, B16/F1 melanoma, blood	intravenous, 0.037 MBq, 24 h	0.29 ± 0.05 %ID/g
CN1C(=O)[C@@H](Cc2ccc(O)c(I)c2)NC(=O)CNC(=O)[C@H](Cc2ccc3ccccc3c2)NC(=O)[C@H](CCCNC(=N)N)NC(=O)[C@H]1CCCNC(=O)c1ccc(CNC(=O)CN2CCN(CC(=O)O)CCN(CC(=O)O)CCN(CC(=O)O)CC2)cc1 [lutetium-177 labelled]	item: 177Lu radioactivity	female CB-17 SCID mice, Daudi xenograft, uterus	intravenous, 0.16 nmol per mouse, 6 h	0.31 ± 0.05 %ID/g

Excerpt of the above:
Structure (SMILES)	assay	system	setting	tissue uptake
CC(C)[C@H](NC(=O)[C@@H]1CCCN1C(=O)[C@H](CCCNC(=N)N)NC(=O)[C@H](CS)NC(=O)[C@H](Cc1c[nH]c2ccccc12)NC(=O)[C@H](CCCNC(=N)N)NC(=O)[C@@H](Cc1ccccc1)NC(=O)[C@H](Cc1c[nH]cn1)NC(=O)[C@H](CCC(=O)O)NC(=O)[C@H](CS)NC(=O)[C@H](CS)NC(=O)CNC(=O)[C@@H]1CC(=O)N[C@@H](CCCNC(=N)N)C(=O)NCC(=O)N[C@@H](CC(=O)O)C(=O)N[C@H](Cc2ccc(O)cc2)C(=O)N1)C(N)=O [technetium-99m labelled]	–	C57 mice B16/F1 melanoma female, brain	iv, 2 h, with: NDP-MSH 10 µg co-injected	0.09 ± 0.08 %ID/g
